Experimental data of several laboratories.
Compare with care: the assays were run in different laboratories. Values joined by “and” are separate records of one study, mostly repeats; a detail may differ.
HCRTR2 del254-292/I293E/K294R/L160H/M161K/Q254E: Orexin receptor type 2 (HCRTR2, Homo sapiens, UniProt O43614, del254-292/I293E/K294R/L160H/M161K/Q254E)
UniProt Q01959, sequence (whole entry, looked up): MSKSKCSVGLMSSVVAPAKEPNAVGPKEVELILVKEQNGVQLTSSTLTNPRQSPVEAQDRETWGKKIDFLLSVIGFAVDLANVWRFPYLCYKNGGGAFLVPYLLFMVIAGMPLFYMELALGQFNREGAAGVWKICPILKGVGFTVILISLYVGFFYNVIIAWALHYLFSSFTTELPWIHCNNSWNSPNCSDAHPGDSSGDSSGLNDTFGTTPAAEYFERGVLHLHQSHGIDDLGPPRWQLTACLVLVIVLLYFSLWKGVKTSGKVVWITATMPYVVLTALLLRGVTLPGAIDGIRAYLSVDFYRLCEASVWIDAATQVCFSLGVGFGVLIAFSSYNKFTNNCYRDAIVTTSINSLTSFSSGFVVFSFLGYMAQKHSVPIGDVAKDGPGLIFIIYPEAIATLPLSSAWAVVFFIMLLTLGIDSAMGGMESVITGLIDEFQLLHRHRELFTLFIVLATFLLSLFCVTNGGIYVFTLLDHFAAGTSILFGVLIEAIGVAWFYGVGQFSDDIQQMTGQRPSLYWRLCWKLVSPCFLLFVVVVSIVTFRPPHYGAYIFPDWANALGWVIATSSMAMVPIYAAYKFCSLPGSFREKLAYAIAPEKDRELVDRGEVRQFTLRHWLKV
UniProt O43614, sequence (whole entry, unmodified, looked up): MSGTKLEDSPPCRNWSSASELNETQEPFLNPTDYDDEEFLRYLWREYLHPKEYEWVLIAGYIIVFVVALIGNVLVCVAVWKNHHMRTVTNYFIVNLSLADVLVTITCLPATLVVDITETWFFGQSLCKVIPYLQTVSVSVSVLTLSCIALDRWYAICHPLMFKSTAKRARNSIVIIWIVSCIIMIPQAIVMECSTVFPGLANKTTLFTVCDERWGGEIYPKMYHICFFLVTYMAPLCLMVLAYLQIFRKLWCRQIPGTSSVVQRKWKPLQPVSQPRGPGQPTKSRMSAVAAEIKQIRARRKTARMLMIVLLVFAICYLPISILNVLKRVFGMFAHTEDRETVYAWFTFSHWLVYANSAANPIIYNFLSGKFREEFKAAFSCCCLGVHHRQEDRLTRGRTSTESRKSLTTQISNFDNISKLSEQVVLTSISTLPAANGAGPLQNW
UniProt P18825, sequence (whole entry, looked up): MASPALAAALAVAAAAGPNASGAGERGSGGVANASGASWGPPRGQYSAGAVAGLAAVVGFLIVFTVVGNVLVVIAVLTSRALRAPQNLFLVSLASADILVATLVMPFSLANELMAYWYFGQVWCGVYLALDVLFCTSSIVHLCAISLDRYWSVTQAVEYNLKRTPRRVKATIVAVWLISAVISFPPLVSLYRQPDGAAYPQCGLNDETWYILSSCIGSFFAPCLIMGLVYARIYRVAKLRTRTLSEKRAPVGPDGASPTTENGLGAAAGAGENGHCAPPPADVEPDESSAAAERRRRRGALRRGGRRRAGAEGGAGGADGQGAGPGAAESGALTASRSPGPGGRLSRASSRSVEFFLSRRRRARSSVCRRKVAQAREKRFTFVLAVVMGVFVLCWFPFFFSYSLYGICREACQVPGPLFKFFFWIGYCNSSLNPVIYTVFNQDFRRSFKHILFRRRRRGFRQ
UniProt Q00975, sequence (whole entry, looked up): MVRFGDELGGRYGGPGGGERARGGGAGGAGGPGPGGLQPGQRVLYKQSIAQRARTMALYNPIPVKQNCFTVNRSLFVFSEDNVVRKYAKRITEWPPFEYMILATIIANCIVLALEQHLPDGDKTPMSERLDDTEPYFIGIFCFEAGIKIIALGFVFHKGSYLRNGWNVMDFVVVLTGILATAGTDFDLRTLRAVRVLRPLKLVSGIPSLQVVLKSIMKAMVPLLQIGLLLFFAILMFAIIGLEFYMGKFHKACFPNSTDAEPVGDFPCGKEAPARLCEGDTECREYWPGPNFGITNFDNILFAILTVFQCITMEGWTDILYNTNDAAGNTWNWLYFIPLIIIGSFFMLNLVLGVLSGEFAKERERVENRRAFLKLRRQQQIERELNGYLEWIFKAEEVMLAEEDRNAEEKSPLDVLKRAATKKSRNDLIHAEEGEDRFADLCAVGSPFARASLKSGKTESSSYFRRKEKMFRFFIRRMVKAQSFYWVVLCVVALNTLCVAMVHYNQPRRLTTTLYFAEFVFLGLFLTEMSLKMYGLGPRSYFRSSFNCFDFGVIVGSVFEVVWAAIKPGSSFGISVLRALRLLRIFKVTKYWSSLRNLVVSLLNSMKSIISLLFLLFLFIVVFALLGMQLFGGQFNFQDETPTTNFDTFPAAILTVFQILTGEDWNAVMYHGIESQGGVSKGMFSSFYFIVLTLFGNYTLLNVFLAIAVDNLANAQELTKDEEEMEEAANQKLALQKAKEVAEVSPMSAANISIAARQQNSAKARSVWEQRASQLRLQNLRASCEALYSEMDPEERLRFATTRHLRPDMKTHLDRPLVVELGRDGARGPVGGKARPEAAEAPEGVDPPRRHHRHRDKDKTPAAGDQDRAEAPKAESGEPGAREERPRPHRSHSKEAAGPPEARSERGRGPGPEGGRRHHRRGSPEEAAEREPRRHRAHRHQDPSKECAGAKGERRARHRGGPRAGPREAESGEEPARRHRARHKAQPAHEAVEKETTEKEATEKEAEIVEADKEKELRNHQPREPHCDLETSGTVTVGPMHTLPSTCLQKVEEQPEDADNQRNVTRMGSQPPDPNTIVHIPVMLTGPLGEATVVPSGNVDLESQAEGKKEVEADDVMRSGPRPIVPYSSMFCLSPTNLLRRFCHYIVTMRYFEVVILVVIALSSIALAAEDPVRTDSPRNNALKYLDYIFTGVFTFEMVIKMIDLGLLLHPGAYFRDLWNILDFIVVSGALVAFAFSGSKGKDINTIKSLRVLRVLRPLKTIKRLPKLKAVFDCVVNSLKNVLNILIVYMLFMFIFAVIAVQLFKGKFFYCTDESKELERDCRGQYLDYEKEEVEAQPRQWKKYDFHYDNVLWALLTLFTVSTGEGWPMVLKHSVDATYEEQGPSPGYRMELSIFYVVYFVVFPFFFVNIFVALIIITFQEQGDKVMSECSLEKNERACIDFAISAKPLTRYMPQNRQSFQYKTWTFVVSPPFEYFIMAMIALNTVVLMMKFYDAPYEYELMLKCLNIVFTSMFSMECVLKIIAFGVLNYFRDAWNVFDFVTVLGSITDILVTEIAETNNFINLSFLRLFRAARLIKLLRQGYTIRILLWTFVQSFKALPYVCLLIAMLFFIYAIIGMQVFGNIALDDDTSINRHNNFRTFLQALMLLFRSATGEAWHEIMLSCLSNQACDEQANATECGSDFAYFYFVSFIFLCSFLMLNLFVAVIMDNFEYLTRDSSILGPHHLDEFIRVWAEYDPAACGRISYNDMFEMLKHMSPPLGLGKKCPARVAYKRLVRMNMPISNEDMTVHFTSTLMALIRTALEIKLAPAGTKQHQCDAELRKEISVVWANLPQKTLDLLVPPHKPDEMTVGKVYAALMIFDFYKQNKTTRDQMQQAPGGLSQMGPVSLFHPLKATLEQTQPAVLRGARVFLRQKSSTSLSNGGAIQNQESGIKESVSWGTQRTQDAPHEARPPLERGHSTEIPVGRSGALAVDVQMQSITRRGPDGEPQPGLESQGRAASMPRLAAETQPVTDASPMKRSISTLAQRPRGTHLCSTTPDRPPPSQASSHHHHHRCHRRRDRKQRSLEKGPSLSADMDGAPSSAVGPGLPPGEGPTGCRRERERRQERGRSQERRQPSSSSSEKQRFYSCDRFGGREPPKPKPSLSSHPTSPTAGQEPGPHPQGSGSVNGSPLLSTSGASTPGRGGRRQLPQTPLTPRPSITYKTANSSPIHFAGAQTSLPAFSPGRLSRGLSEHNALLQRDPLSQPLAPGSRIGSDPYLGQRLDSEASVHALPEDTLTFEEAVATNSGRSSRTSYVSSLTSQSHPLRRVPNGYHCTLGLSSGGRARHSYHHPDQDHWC
UniProt P14416, sequence (whole entry, looked up): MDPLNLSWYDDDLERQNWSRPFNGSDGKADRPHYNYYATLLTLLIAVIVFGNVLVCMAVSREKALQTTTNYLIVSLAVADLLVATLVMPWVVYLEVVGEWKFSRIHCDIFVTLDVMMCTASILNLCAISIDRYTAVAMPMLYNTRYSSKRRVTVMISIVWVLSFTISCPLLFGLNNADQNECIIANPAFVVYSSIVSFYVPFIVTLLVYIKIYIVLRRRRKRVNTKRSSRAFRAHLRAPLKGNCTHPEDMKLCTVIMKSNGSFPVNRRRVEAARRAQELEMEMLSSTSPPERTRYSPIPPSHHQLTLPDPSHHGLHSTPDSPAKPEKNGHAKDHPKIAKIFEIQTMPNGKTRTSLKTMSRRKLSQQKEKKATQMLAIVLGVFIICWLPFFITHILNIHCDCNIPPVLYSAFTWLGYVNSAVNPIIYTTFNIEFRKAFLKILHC
UniProt P42685, sequence (whole entry, looked up): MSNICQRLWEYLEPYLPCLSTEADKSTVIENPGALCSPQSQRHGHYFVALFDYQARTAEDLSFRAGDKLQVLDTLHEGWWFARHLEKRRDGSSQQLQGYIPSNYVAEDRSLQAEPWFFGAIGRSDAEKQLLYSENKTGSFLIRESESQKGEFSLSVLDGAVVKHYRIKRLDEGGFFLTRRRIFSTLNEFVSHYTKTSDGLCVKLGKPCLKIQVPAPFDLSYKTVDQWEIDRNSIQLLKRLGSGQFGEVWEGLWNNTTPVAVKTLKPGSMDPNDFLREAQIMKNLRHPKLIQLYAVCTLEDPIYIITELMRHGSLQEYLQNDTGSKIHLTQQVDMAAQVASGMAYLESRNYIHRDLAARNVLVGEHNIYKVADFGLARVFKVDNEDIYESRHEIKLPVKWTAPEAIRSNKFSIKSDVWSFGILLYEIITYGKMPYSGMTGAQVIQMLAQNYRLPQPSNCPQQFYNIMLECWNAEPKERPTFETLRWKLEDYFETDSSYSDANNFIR

For CC(C)(CO)Cc1cc(C(C)(C)C)c(O)c(C(C)(C)C)c1, the IC50 was 7.94 µM (Plasmodium falciparum; W2).
The dopamine uptake of c1ccc2cc([C@]34CNC[C@H]3C4)ccc2c1 is reported as 127% and 105% and 83% (Sodium-dependent dopamine transporter (SLC6A3, Homo sapiens, UniProt Q01959); inhibitor, [3H]dopamine uptake; 100 pM; baseline: no inhibitor).
With C=CCN1CC[C@]23c4c5ccc(O)c4O[C@H]2C(=O)CC[C@]3(O)[C@H]1C5 the inhibition was 3% (Voltage-dependent N-type calcium channel subunit alpha-1B (Homo sapiens, UniProt Q00975); concentration not given).
The kon of C[C@]12CCC(=O)C=C1CC[C@@H]1[C@@H]2CC[C@]2(C)C(=O)CC[C@@H]12 is reported as 1.1e+07 M⁻¹ s⁻¹ (Aromatase (CYP19A1, Homo sapiens, UniProt P11511)).
For O=C(Nc1cccnn1)N1CCC(=Cc2cccc(Oc3ccc(C(F)(F)F)cn3)c2)CC1, the inhibition was 18% (Alpha-2C adrenergic receptor (ADRA2C, Homo sapiens, UniProt P18825); binding; 10 µM, added: [3H]rauwolscine).
COC(=O)[C@@H](NC(=O)c1nn(Cc2ccc(F)cc2)c2ccccc12)C(C)(C)C: “Gi GTP turnover maximum” 102% (Cannabinoid receptor 1 (CNR1, Homo sapiens, UniProt P21554); GTPase; baseline: compound).
Clc1cccc(N2CCNCC2)c1Cl has an Emax of 16% (Muscarinic acetylcholine receptor M4 (CHRM4, Homo sapiens, UniProt P08173); ERK1/2 phosphorylation, agonist; CHO cells).
COc1ccc(N2C(=O)N(c3c(C)cccc3Cl)Cc3cnc(Nc4ccc(C5CCN(C)CC5)cc4OC)nc32)nc1 gave an inhibition of 99% (Tyrosine-protein kinase FRK (FRK, Homo sapiens, UniProt P42685); kinase activity, inhibitor; 0.5 µM, PTK5).
Under “log2 fold change”, Oc1ccc2c3c1O[C@H]1[C@@H](O)CC[C@@]4(O)[C@@H](C2)N(CC2CCC2)CC[C@]314 is recorded as -0.169 (Probable G-protein coupled receptor 132 (GPR132, Homo sapiens, UniProt Q9UNW8); β-arrestin recruitment, TANGO luminescence; concentration not given; baseline: basal luminescence).
For CN(CCN1CCC(OC(=O)Nc2ccccc2-c2ccccc2)CC1)C(=O)c1ccc(CN2CCC(C(N)=O)CC2)cc1, the inhibition was 100% (rat muscarinic receptor non-selective; radioligand binding; 1 µM).
C[C@H]1CN(c2n[nH]c3nc(N[C@H]4CC[C@H](NS(=O)(=O)CCC(F)(F)F)CC4)ncc23)CCO1 has a relative abundance of 1.1 (RAC-beta serine/threonine-protein kinase (AKT2, Homo sapiens, UniProt P31751); inhibitor, Kinobeads competition profiling; 0.16 µM; baseline: vehicle).
The inhibition of CN(C(=O)n1cnc(-c2ccc[n+]([O-])c2)c1)C1CCCCC1 is reported as -4% (High affinity choline transporter 1 (Rattus norvegicus, UniProt Q9JMD7); radioligand binding; 10 µM, added: [3H]hemicholinium-3).
CNC(=O)[C@@H](c1ccccc1)N1CCc2cc(OC)c(OC)cc2[C@@H]1CCc1ccc(C(F)(F)F)cc1: “normalised fluorescence response” -2.62 and -3.01 and -2.1 and 0.579 and -2.78 and 2.22 and 1.69 (HCRTR2 del254-292/I293E/K294R/L160H/M161K/Q254E; fluorescence sensor response, fluorescence; concentration not given).
CNC1(c2ccccc2Cl)CCCCC1=O (racemic) has an inhibition of -2% (D(2) dopamine receptor, short isoform (DRD2, Homo sapiens, UniProt P14416); radioligand binding, agonist, radioligand displacement; 30 µM).
OC(Cn1cncn1)(Cn1cncn1)c1ccc(F)cc1F: “relative ATPase activity” 97.9% (CDR1 (Candida albicans, UniProt Q5ANA3); malachite green phosphate release; 4 µM; baseline: untreated).
Under “normalised fluorescence response”, Cc1ccc(-n2nccn2)c(C(=O)N2CCN(c3nc4cc(Cl)ccc4o3)CC[C@H]2C)c1 is recorded as -0.155 and -0.0149 and 0.348 and -0.265 and 0.0564 and -0.0321 (HCRTR2 del254-292/I293E/K294R/L160H/M161K/Q254E; fluorescence sensor response, fluorescence; concentration not given, added: OXA).

Repeated from above:
For O=C(Nc1cccnn1)N1CCC(=Cc2cccc(Oc3ccc(C(F)(F)F)cn3)c2)CC1, the inhibition was 18% (Alpha-2C adrenergic receptor (ADRA2C, Homo sapiens, UniProt P18825); binding; 10 µM, added: [3H]rauwolscine).
Under “log2 fold change”, Oc1ccc2c3c1O[C@H]1[C@@H](O)CC[C@@]4(O)[C@@H](C2)N(CC2CCC2)CC[C@]314 is recorded as -0.169 (Probable G-protein coupled receptor 132 (GPR132, Homo sapiens, UniProt Q9UNW8); β-arrestin recruitment, TANGO luminescence; concentration not given; baseline: basal luminescence).
